Published values of several laboratories.
Parts stem from different laboratories: compare values within a part only. Changes are numbered by the printed parent chain.

Study 1
Target: Interferon regulatory factor 7, full length, phosphomimetic (IRF7, Homo sapiens, UniProt Q92985, residues 1-503, S101K/S471D/S472D/S475D/S476D/S477D/S483D/S484D/S487D)
Technique: protein-binding microarray
Form: double-stranded DNA, one strand shown
Sample: in vitro
Concentration: 250 nM
Notes: 60-bp whole probe
Added: salmon DNA 0.4 mg/ml
Reference: random background probes
Direction: higher = stronger binding
Measurement: log fluorescence
All sequences stand within: GCCTAGCAC … GTCTTGATTCGCTTGACGCTGCTG
Target sequence (chain): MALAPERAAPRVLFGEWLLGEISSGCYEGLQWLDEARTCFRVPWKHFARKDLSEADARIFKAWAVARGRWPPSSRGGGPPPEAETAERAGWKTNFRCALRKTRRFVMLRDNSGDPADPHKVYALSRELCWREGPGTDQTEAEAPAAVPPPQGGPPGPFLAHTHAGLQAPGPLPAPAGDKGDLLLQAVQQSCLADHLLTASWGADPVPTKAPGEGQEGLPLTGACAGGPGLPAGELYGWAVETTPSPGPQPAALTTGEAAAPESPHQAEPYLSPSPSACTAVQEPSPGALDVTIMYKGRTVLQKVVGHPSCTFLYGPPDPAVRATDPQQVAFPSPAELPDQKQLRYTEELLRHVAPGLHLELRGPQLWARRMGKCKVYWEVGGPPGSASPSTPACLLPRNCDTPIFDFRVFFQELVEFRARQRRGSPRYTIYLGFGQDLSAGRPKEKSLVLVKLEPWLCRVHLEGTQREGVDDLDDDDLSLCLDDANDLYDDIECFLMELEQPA
TCAGTTTTCTTTTCATTACTGTGCTAG: 4.56 z-score
GTAGGACTGGACTATCGGTTAGTGCTA: -0.842 z-score
TCAAGGTTCTCTTTTATACTGTGCTAG: 1.17 z-score
GACGCTATCAGTCTCGAGACGTGCTAG: 0.686 z-score
ATAGAACTGAGTTTCGATTAGTGCTAG: 8.52 z-score
TTTTTTTTGCAAGCTAAAAAAGTGCTA: 0.667 z-score
GACGGTTTAGGACTGGGGACGTGCTAG: 0.118 z-score
TTAGATATCGGGGTTCGATTAGTGCTA: 0.547 z-score

Study 2
Target: Histone acetyltransferase KAT6A, winged helix 2, GST fusion (KAT6A, Homo sapiens, UniProt Q92794, residues 85-181)
Technique: protein binding microarray
Form: double-stranded DNA, one strand shown
Sample: in vitro
Concentration: not given
Notes: 8-mer, flanks averaged, mean of 2 arrays, mostly near background
Reference: not given
Direction: higher = stronger binding
Measurement: E-score
Construct (chain): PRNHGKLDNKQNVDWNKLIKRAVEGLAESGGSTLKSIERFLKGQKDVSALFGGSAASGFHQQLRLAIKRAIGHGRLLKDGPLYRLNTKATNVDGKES
AAGCGAGT: 0.149
CTGTGGCC: 0.0445
CGGCCATA: -0.0687
AAAGGAGA: -0.0197
GTTCGTGA: -0.000155
AGCCAAAC: -0.035
GCATGACA: 0.0463
CATCAGAC: -0.0868

Study 3
Target: ABI1, truncated, D143A, DHFR fusion (Arabidopsis thaliana)
Technique: DHFR PCA, deep sequencing
Sample: yeast
Notes: methotrexate growth selection, single substitutions
Added: (+)-ABA 4.8 µM
Reference: wild-type fitted maximum
Direction: higher = stronger binding
Measurement: relative binding score
Starting sequence: PYL1, truncated, DHFR fusion (Arabidopsis thaliana); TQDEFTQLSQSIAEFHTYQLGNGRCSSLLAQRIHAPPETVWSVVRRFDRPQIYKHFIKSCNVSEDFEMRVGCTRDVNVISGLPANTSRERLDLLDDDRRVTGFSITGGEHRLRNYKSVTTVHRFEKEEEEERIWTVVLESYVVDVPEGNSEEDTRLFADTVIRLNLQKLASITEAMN
P36E: 60.7%
Y115W: 2.38%
Q2I: 78.2%
S140T: 7.12%

Single results of other studies
PhoQ, residues 284 288 289 292 302 303 SIHMAM
fold induction (PhoP, residues 12 14 15 18 19 LYFRQ (Escherichia coli, UniProt P23836); Sort-seq, refers to: YFP reporter; E. coli; PhoQ-PhoP variant library, added: 10 µM Mg2+; reference: high Mg2+ state, higher = stronger signaling): 16.2
